Measured values gathered from unrelated publications.
Compare with care: the assays were run in different laboratories. Values joined by “and” are separate records of one study, mostly repeats; a detail may differ. ± marks the error that the study gave. Values after ≈ are worked out from the molar mass of the structure shown.

C#Cc1ccc(O)c(C=NNC(=O)c2cc(Br)cc(Br)c2O)c1
FICI (Cryptococcus neoformans; H99; unit not given, added: fluconazole; lower = more synergy): 0.62

Nc1ncnc2c1ncn2[C@@H]1O[C@@H]2COP(=O)(O)O[C@H]3[C@@H](O)[C@H](n4cnc5c(=O)[nH]cnc54)O[C@@H]3COP(=O)(O)O[C@H]2[C@H]1O
fold enrichment (West Nile virus; RNA sequencing, refers to: NOD1/2 signaling pathway R-HSA-168638; HFF-1 cells; concentration not given, upregulated pathway; reference: WNV-infected untreated cells): 5.97

CC(=O)N1CCN(c2ccc(OCC3COC(Cn4ccnc4)(c4ccc(Cl)cc4Cl)O3)cc2)CC1 (centres unmarked)
MIC increase (Candida albicans; 2.209; over 30 generations serial passaging; reference: initial MIC): 128 fold

O=C(NN=Cc1ccc(O)c(Br)c1)c1cccc(Br)c1
FIC index (Cryptococcus neoformans; added: tunicamycin; lower = more synergistic): 1

CC1(C(=O)Nc2ccc(O)c(Cl)c2Cl)CCCCC1
EC95 (Botrytis cinerea; lesion diameter; B05.10, cucumber seedlings; spray, 3 days, 20 °C): 7 µg/mL (≈ 23.2 µM)

CCc1nc2nc(C)cc(Nc3ccc(F)c(Cl)c3)n2n1
EC50 ratio (Plasmodium falciparum; parasite growth, SYBR Green; 72 h; reference: 3D7-E182D over 3D7): 16

CN[C@H](CC(C)C)C(=O)N[C@H]1C(=O)N[C@@H](CC(N)=O)C(=O)N[C@H]2C(=O)N[C@H]3C(=O)N[C@H](C(=O)N[C@H](C(=O)O)c4cc(O)cc(O)c4-c4cc3ccc4O)[C@H](O)c3ccc(c(Cl)c3)Oc3cc2cc(c3O[C@@H]2O[C@H](CO)[C@@H](O)[C@H](O)[C@H]2O[C@H]2C[C@](C)(N)[C@H](O)[C@H](C)O2)Oc2ccc(cc2Cl)[C@H]1O
biofilm inhibition (Staphylococcus aureus; MRSA ATCC 33591; 1/2 × MIC): 97.4%

COc1ccc(NC(=O)CCNc2cc(C)nc(NCCc3ccc(F)cc3)n2)cc1
EC50 (Plasmodium falciparum; parasite growth, SYBR Green; 3D7 wild type; 72 h): 843 ± 150 nM

CNC(=O)c1cc(Cl)cc(C)c1NC(=O)c1cc(Br)nn1-c1ncccc1Cl
larval viability (Spodoptera litura; Brassica oleracea field plot; 25 ppm, 72 h, 5% water-dispersible granule): 25.7% and 22.9% and 28.1%

CC(C)[C@@H]1NC(=O)[C@@H](CCCCN)NC(=O)[C@H](CCCCN)NC(=O)[C@@H](CCCN)NC(=O)[C@H](C)NC(=O)[C@H](Cc2c[nH]c3ccccc23)NC(=O)[C@@H](Cc2ccccc2)NC1=O
IC50 (Naegleria fowleri; trophozoites): > 16 µg/mL

CS(=O)(=O)CCCn1c(Cn2c(=O)n(CC(F)(F)F)c3ccncc32)cc2cc(Cl)ccc21
LS mean viral load change (respiratory syncytial virus; RT-qPCR; hospitalized infants 1-24 months, nasal swab; oral, 9, 6 or 5 mg/kg daily, day 28, high dose by age cohort; reference: baseline): -4.77 log10 copies/mL

COc1cc(N[C@H](C(=O)c2c[nH]c3ccc(OC(F)(F)F)cc23)c2ccc(Cl)cc2OC)cc(S(C)(=O)=O)c1
inhibition (dengue virus 2; viral infection, luciferase reporter virus; 0.01 nM, 48 h): 0.6%

C#Cc1ccc(O)c(C=NNC(=O)c2ccc(Br)cc2Br)c1
FICI (Cryptococcus neoformans; H99; unit not given, added: amphotericin B; lower = more synergy): 4

CC(C)(C)[C@]1(O)CCN2C[C@H]3c4ccccc4CCc4cccc(c43)[C@@H]2C1
IC50 (Plasmodium falciparum; Dd2): 15800 nM

CC(=O)c1c(Nc2c(C)cc(C)cc2C)oc(C)cc1=O
EC50 ratio (Plasmodium falciparum; parasite growth, SYBR Green; 72 h; reference: 3D7-E182D over 3D7): 0.8

CN(C)CCCN1c2ccccc2Sc2ccccc21
IC50 (Plasmodium falciparum; 3D7): 12600 nM

COC(=O)N[C@H](C(=O)N1CCC[C@H]1c1ncc(-c2ccc(-c3ccc(-c4cnc([C@@H]5CCCN5C(=O)[C@@H](NC(=O)OC)C(C)C)[nH]4)cc3)cc2)[nH]1)C(C)C
combination index (Hepatitis C virus; replicon cells; 75% effect level, added: NS5B inhibitor, ratio 1:1): 0.8

NCCC[C@@H]1NC(=O)[C@@H](CCCN)NC(=O)[C@H](Cc2ccccc2)NC(=O)[C@@H](Cc2ccccc2)NC(=O)[C@H](Cc2ccccc2)NC(=O)[C@@H](CCCN)NC1=O
IC50 (Naegleria fowleri; trophozoites): 5.98 µg/mL

C#Cc1ccc(O)c(C=NNC(=O)c2ccc(Br)cc2)c1
FICI (Cryptococcus neoformans; H99; unit not given, added: amphotericin B; lower = more synergy): 0.7

Cc1ccc(NC(=O)c2cc(S(=O)(=O)NC(C)(C)C)ccc2C)nc1
EC50 (Plasmodium falciparum; parasite growth, SYBR Green; 3D7 wild type; 72 h): 475 ± 170 nM

Cc1ccccc1C(=O)NN=Cc1ccc(O)c(Br)c1
MIC in combination (Cryptococcus neoformans; concentration not given, added: caspofungin): 0.5 µg/mL

CCCCOc1ccc(-c2noc(-c3ccc(CN)cc3)n2)cc1
inhibition (Clostridioides difficile; spore germination; ATCC 43255; 45 µM, 1 h): 12 to 33%

Cc1cc(Cl)cc(S(C)(=O)=O)c1NC(=O)c1cc(Br)nn1-c1ncccc1Cl
mortality (Spodoptera litura; leaf-dip; third instar larvae; 12.5 ppm, 48 h): 50.7%

Cn1c(=O)ccc2ccc(F)c(CCNC[C@H]3CN(c4cnc5c(n4)NC(=O)CO5)C(=O)O3)c21
MIC90 (Campylobacter spp.): < 0.015 µg/mL

C#Cc1ccc(O)c(C=NNC(=O)c2ccc(C3(C(F)(F)F)N=N3)cc2)c1
FICI (Candida albicans; A39; unit not given, added: caspofungin; lower = more synergy): 0.62

COc1ccccc1N1CCN(Cc2c(NC(C)=O)sc(C)c2C)CC1
EC50 (Plasmodium falciparum; parasite growth, SYBR Green; 3D7 DHODH E182D; 72 h): 556 ± 81 nM

CC1(C)SC2C(NC(=O)C(NC(=O)C3=C(O)C4CCCN4C3=O)c3ccccc3)C(=O)N2C1C(=O)O (centres unmarked)
zone of inhibition (Escherichia coli; ΔtolC JW5503-1; 200 µM, added: 30 µg/mL 2,2'-bipyridyl): 16.7 mm

C[C@@H](O)[C@@H]1NC(=O)[C@H](Cc2ccccc2)NC(=O)[C@@H](Cc2ccccc2)NC(=O)[C@H]([C@@H](C)O)NC(=O)[C@@H](CCCN)NC(=O)[C@H](CCCNC(=N)N)NC(=O)[C@@H](CCCN)NC1=O
IC90 (Acanthamoeba castellanii; trophozoites): > 16 µg/mL

CC[C@H](C)[C@H](NC(=O)[C@H](C)NC(=O)[C@H](CCCCN)NC(=O)[C@H](CC(C)C)NC(=O)[C@H](C)NC(=O)[C@@H](NC(=O)[C@H](Cc1c[nH]cn1)NC(=O)[C@H](CC(C)C)NC(=O)[C@@H](NC(=O)[C@@H](NC(=O)[C@H](CCCCN)NC(=O)[C@H](C)NC(=O)[C@H](C)NC(=O)[C@H](CO)NC(=O)[C@H](CCCCN)NC(=O)[C@H](Cc1ccccc1)NC(=O)[C@@H](NC(=O)[C@H](CCCCN)NC(=O)[C@H](CC(C)C)NC(=O)[C@H](Cc1ccccc1)NC(=O)[C@H](CO)NC(=O)[C@H](CCCCN)NC(=O)[C@H](Cc1c[nH]c2ccccc12)NC(=O)[C@H](CCCCN)NC(C)=O)[C@@H](C)O)[C@@H](C)O)C(C)C)[C@@H](C)O)C(=O)N[C@@H](CO)C(=O)N[C@@H](CO)C(N)=O
MBC50 (Streptococcus pyogenes; erythromycin-resistant; 19 strains): 32 µg/mL (≈ 10.9 µM)

OC(CCN1CCCCC1)(c1ccccc1)C1CCCCC1 (centres unmarked)
IC50 (Plasmodium falciparum; 3D7): 12600 nM

Cc1ccc(CCNC2CCCc3c2[nH]c2ccc(C)cc32)cc1 (centres unmarked)
MIC fold change (Streptococcus pneumoniae; concentration not given, 10% fetal bovine serum; reference: without serum): 4

COc1ccccc1N1CCN(CCCCNC(=O)c2ccc3ccccc3c2)CC1
IC50 (Plasmodium falciparum; 7G8): 6310 nM

CC(C)[C@H]1NC(=O)[C@H](CCCNC(=N)N)NC(=O)CNC(=O)[C@@H](Cc2c[nH]c3ccccc23)NC(=O)[C@H](CCCCN)NC(=O)[C@@H](CCCN)NC1=O
IC50 (Naegleria fowleri; trophozoites): > 16 µg/mL

O=C(NC(=O)c1c(F)cccc1F)Nc1ccc(Cl)cc1
mortality (Ostrinia furnacalis; leaf dipping; 50 mg/L, 96 h): 33.3 ± 5.8%

CCn1c(-c2ccccc2)cc2nnc3ccccc3c21
EC50 ratio (Plasmodium falciparum; parasite growth, SYBR Green; 72 h; reference: 3D7-E182D over 3D7): 2.2

CNCCCN1c2ccccc2CCc2ccccc21
IC50 (Plasmodium falciparum; Dd2): 2000 nM

C[C@H]1COc2c(N3CCN(C)CC3)c(F)cc3c(=O)c(C(=O)O)cn1c23
MIC90 (Streptococcus pneumoniae): 1 µg/mL (≈ 2.77 µM)

C[C@@H](O)[C@H]1C(=O)N2C(C(=O)O)=C(S[C@@H]3CN[C@H](C(=O)N(C)C)C3)[C@H](C)[C@H]12
bacterial burden, best (Klebsiella pneumoniae; NDM-producing, neutropenic BALB/c mouse, thigh infection, thigh; dose not given, 6 h): 8.3 log10 CFU/thigh

C[C@@H]1CN(c2ccnc3ccc(Sc4ccc(Oc5ccccc5)cc4)cc23)C[C@H](C)N1.Cl
EC50 ratio (Plasmodium falciparum; parasite growth, SYBR Green; 72 h; reference: 3D7-E182D over 3D7): 1.1

CC(C)[C@@H]1NC(=O)[C@@H](Cc2ccccc2)NC(=O)[C@H](Cc2ccccc2)NC(=O)[C@@H]([C@H](C)O)NC(=O)[C@@H](CCCNC(=N)N)NC1=O
IC50 (Acanthamoeba castellanii; trophozoites): > 16 µg/mL

CN(C)c1nc(NCc2cccc(F)c2)c(/N=N/c2ccc(Cl)cc2)c(N(C)C)n1
mortality (Ostrinia furnacalis; leaf dipping; 200 mg/L, 96 h): 90%

CC(C)[C@H]1NC(=O)[C@H](Cc2ccccc2)NC(=O)CNC(=O)[C@@H](Cc2ccccc2)NC(=O)[C@H](CCC(N)=O)NC(=O)[C@@H](CCCN)NC1=O
IC90 (Naegleria fowleri; trophozoites): > 16 µg/mL

CCCCN1[C@@H]2CC[C@H]1C[C@@H](OC(c1ccc(F)cc1)c1ccc(F)cc1)C2
IC50 (Plasmodium falciparum; GB4): 1260 nM

CC(C)[C@@H]1NC(=O)[C@@H](CCCCN)NC(=O)[C@H](CCCN)NC(=O)[C@@H](CC(=O)O)NC(=O)[C@H](C)NC(=O)[C@H](Cc2c[nH]c3ccccc23)NC(=O)[C@@H](Cc2ccccc2)NC1=O
IC90 (Acanthamoeba castellanii; trophozoites): > 16 µg/mL

COC(=O)[C@@H]1[C@H]2C[C@H]3c4[nH]c5ccccc5c4CCN3C[C@@H]2CC[C@@H]1O
IC50 (Plasmodium falciparum; 3D7): 6310 nM

NCc1ccc(-c2nc(-c3ccc(OC(F)(F)F)cc3)no2)cc1
inhibition (Clostridioides difficile; spore germination; ATCC 43255; 45 µM, 1 h): 12 to 33%

CCN(CC)CCO[C@H]1CC[C@@]2(C)C(=CC[C@@H]3[C@@H]2CC[C@]2(C)C(=O)CC[C@@H]32)C1
EC90 (human rotavirus; viral replication, focus reduction; MA104): 20900 nM

CCCCOc1ccccc1C(=O)NCc1csc(-c2ccccc2)n1
EC50 (Plasmodium falciparum; parasite growth, SYBR Green; 3D7 wild type; 72 h): 436 ± 100 nM

OC(CN1CCC(Cc2ccc(F)cc2)CC1)c1ccc(Cl)cc1 (centres unmarked)
IC50 (Plasmodium falciparum; D10): 2510 nM

CC(C)[C@@H]1NC(=O)[C@@H](C(C)C)NC(=O)[C@H](C)NC(=O)[C@H](CO)NC(=O)[C@H](Cc2c[nH]c3ccccc23)NC(=O)[C@@H](Cc2ccc(O)cc2)NC(=O)[C@H](CCCN)NC(=O)[C@H](Cc2c[nH]c3ccccc23)NC1=O
IC50 (Naegleria fowleri; trophozoites): > 16 µg/mL

A few entries again:
CC(=O)c1c(Nc2c(C)cc(C)cc2C)oc(C)cc1=O
EC50 ratio (Plasmodium falciparum; parasite growth, SYBR Green; 72 h; reference: 3D7-E182D over 3D7): 0.8

CN(C)CCCN1c2ccccc2Sc2ccccc21
IC50 (Plasmodium falciparum; 3D7): 12600 nM

COC(=O)N[C@H](C(=O)N1CCC[C@H]1c1ncc(-c2ccc(-c3ccc(-c4cnc([C@@H]5CCCN5C(=O)[C@@H](NC(=O)OC)C(C)C)[nH]4)cc3)cc2)[nH]1)C(C)C
combination index (Hepatitis C virus; replicon cells; 75% effect level, added: NS5B inhibitor, ratio 1:1): 0.8

NCCC[C@@H]1NC(=O)[C@@H](CCCN)NC(=O)[C@H](Cc2ccccc2)NC(=O)[C@@H](Cc2ccccc2)NC(=O)[C@H](Cc2ccccc2)NC(=O)[C@@H](CCCN)NC1=O
IC50 (Naegleria fowleri; trophozoites): 5.98 µg/mL
